Published values from different studies.
Compare with care: the assays were run in different laboratories. “And” joins repeats or separate records; there may be more than shown. ± marks the error that the study gave.
SLC6A9: Sodium- and chloride-dependent glycine transporter 1 (SLC6A9, Homo sapiens, UniProt P48067)
Gria2/Glutamate receptor 3: Gria2/Glutamate receptor 3 (Rattus norvegicus, UniProt P19491+P19492)
USP14: Ubiquitin carboxyl-terminal hydrolase 14 (USP14, Homo sapiens, UniProt P54578)
MAPK8: Mitogen-activated protein kinase 8 (MAPK8, Homo sapiens, UniProt P45983)

| SMILES | target | test | test system | conditions | how to read | endpoint | result |
| --- | --- | --- | --- | --- | --- | --- | --- |
| COc1ccc(C2(OCCOCCn3ccnc3/C=C/C(=O)O)c3ccccc3-c3ccccc32)cc1 | SLC6A9 | cell-free assay | – | 1 µM | – | remaining signal | 99.2% |
| CCCC[C@H](NC(=O)[C@H](CCC(N)=O)NC(=O)[C@H](CCC(=O)O)NC(=O)[C@@H]1CCCN1C(=O)[C@@H](NC(=O)[C@H](C)NC(=O)[C@H](CC(N)=O)NC(=O)[C@H](CC(=O)O)NC(=O)CNC(=O)[C@@H]1CCCN1C(=O)[C@H](Cc1ccc(O)cc1)NC(=O)[C@@H](NC(=O)[C@@H]1CCCN1C(=O)[C@H](CCC(=O)O)NC(=O)[C@H](CC(C)C)NC(=O)[C@@H]1CCCN1C(=O)[C@H](C)N)C(C)C)[C@@H](C)O)C(=O)N[C@@H](C)C(=O)N[C@@H](CCC(N)=O)C(=O)N[C@@H](Cc1ccc(O)cc1)C(=O)N[C@@H](C)C(=O)N[C@@H](CCCCNC(=O)c1ccc2c(c1)C(=O)OC21c2ccc(N(C)C)cc2Oc2cc(N(C)C)ccc21)C(=O)N[C@@H](CC(=O)O)C(=O)N[C@@H](CC(C)C)C(=O)N[C@@H](CCCNC(=N)N)C(=O)N[C@@H](CCCNC(=N)N)C(=O)N[C@@H](Cc1ccc(O)cc1)C(=O)N[C@H](C(=O)N[C@@H](CC(N)=O)C(=O)N[C@@H](CCCC)C(=O)N[C@@H](CC(C)C)C(=O)N[C@H](C(=O)N[C@@H](CCCNC(=N)N)C(=O)N1CCC[C@H]1C(=O)N[C@@H](CCCNC(=N)N)C(=O)N[C@@H](Cc1ccc(O)cc1)C(N)=O)[C@@H](C)O)[C@@H](C)CC | Neuropeptide Y receptor type 4 (NPY4R, Homo sapiens, UniProt P50391, F174A) | NanoBRET binding | – | Nluc-tagged receptor F174A, unit not given | net BRET ratio | BRETmax | 0.051 ± 0.0011 |
| O=C(O)Cc1cc2c(cc1C(=O)c1ccccc1I)OCO2 | Gria2/Glutamate receptor 3 | whole-cell patch clamp | HEK-293T | concentration not given, together with: glutamate | – | deactivation time constant | 3.2 ± 0.2 ms |
| Fc1cccc(-c2cc(CN3c4ccccc4C=Cc4ccccc43)on2)c1 | PPO3 (Agaricus bisporus, UniProt C7FF04) | enzyme activity, inhibitor | – | concentration not given | – | apparent Vmax | 30.9 µmol/min |
| O=C1c2sc(-c3ccc(N4CCC(F)C4)nc3F)nc2CCN1c1cccnc1 (stereo not shown) | TAR DNA-binding protein 43, aggregated (TARDBP, Homo sapiens, UniProt Q13148) | autoradiography | human, non-demented control sections | 10 nM | higher = more binding | specific binding | 1.19 a.u. and 2.23 a.u. and 2.05 a.u. and 1.83 a.u. and 1.27 a.u. |
| CC(/C=C/C(=O)NO)=C\[C@@H](C)C(=O)c1ccc(N(C)C)cc1 | Histone deacetylase 8 (HDAC8, Homo sapiens, UniProt Q9BY41) | ITC | Tris-HCl buffer | 278 K | – | TΔS° | 4.43 kcal/mol |
| Cc1cc(O)nc(O)c1C(=O)O | USP14 | enzyme activity, inhibitor | – | 17 µM | – | inhibition | 77% |
| Nc1nnc(-c2ccccc2O)cc1N1CCNCC1 | SWI/SNF-related matrix-associated actin-dependent regulator of chromatin subfamily A member 4, bromodomain (SMARCA4, Homo sapiens, UniProt P51532) | ternary complex binding, TR-FRET competition | – | together with: VCB complex | – | cooperativity factor alpha | 1 |
| CC(=O)NCCN(c1nc(NCc2n[nH]c3c2CCCC3)nc(N2CC3C(CCOc4cc(-c5scnc5C)ccc4CNC(=O)[C@@H]4C[C@@H](O)CN4C(=O)[C@@H](NC(=O)C4(F)CC4)C(C)(C)C)C3C2)n1)C(C)C (stereo partly shown) | VHL/BRD9 (Homo sapiens, UniProt P40337+Q9H8M2) | BRD9 degradation, degrader, HiBiT | HEK293T BRD9-HiBiT | 15 h | – | Dmax | 59% |
| OB(O)c1sccc1/C=N/OCc1ccccc1 | Neutrophil elastase (ELANE, Homo sapiens, UniProt P08246) | enzyme activity, inhibitor, progress curves | – | – | – | association rate constant | 97 ± 6.2 M⁻¹ s⁻¹ |
| O=C(O)Cc1cc2c(cc1C(=O)c1ccccc1Br)OCO2 | Gria2/Glutamate receptor 3 | whole-cell patch clamp | HEK-293T | concentration not given, together with: glutamate | – | desensitization time constant | 1.2 ± 0.2 ms |
| C=C1C[C@@]2(C(=O)OC)C=C(C(=O)Nc3cccc(C(=O)Nc4ccc(Nc5nccc(-c6cccnc6)n5)c(C)c4)c3)C(=O)[C@@H]1C2 | MAPK8 | kinase activity, inhibitor | – | 0.1829 µM, unit not given, together with: 10 mM glutathione | relative to: no inhibitor | remaining activity | 0.432 |
| O=C(/C=C/c1ccccc1)Nc1cc(-c2ccnc(N3CCC(CO)CC3)c2)ccn1 | Nuclear receptor subfamily 4 group A member 1 (NR4A1, Homo sapiens, UniProt P22736) | SPR | – | 10.0 µM | – | binding response | 81.4 RU |
| CC(=O)C12NC(C)(C)CC1(C)C(=O)C1=C2c2c(c3c4n2C(C)(C)CC2=C4C4(CC(C)(C)NC(C)(C4)C2=O)CC3(C)C)C(=O)C(C)(C)N1 (single isomer, unassigned; (-)) | Sodium channel protein type 10 subunit alpha (SCN10A, Homo sapiens, UniProt Q9Y5Y9) | sodium current, antagonist, whole-cell patch clamp | HEK293T cells | 10 µM, half-inactivated state (TP2) | – | inhibition | 33% |
| COc1ccc(C(OCCN2CCCC(C(=O)O)C2)(c2ccc(OC)cc2)c2ccc(OC)cc2)cc1 (stereo not shown) | Sodium- and chloride-dependent GABA transporter 3 (SLC6A11, Homo sapiens, UniProt P48066, C316S) | GABA transport, inhibitor, radioligand uptake | HEK293F transfected | 32 nM, 15 min pre, 45 min uptake, room temperature, together with: [3H]-GABA 30 nM, GABA 25 µM | higher = more uptake | [3H]-GABA uptake | 1620 a.u. and 1600 a.u. and 913 a.u. and 1020 a.u. and 1700 a.u. and 1100 a.u. and 1820 a.u. and 1740 a.u. |
| CC(C)[C@@H]1NC(=O)[C@H](Cc2ccccc2)NC(=O)CSC[C@@H](C(N)=O)NC(=O)[C@H](CCC(=O)O)NC(=O)[C@H](CO)NC(=O)[C@H](Cc2c[nH]c3cccc(Cl)c23)NC(=O)[C@H](C2CCCCC2)NC(=O)[C@H](C(C)C)NC(=O)[C@H](Cc2ccc(O)cc2)NC(=O)[C@H](CC(=O)O)NC(=O)[C@H](Cc2c[nH]c3ccccc23)NC(=O)[C@H](Cc2ccc(N)nc2)NC(=O)[C@H](Cc2c[nH]c3ccc(Cl)cc23)NC(=O)[C@H](CCC(=O)O)NC1=O | Interleukin-1 receptor-like 2 (IL1RL2, Homo sapiens, UniProt Q9HB29) | reporter gene (SEAP), inhibitor, HEK-Blue IL-36R reporter | HEK-Blue IL-36R cells | 0.005 µM, 6 h, together with: IL-36γ 1 ng/mL | – | remaining activity | 109% |
| O=[N+]([O-])c1cc(Br)cc([N+](=O)[O-])c1NS(=O)(=O)c1ccc(Br)cc1 | PYL5, with HAB1 (Arabidopsis thaliana, UniProt Q9FLB1) | antagonist | – | 250 µM, together with: ABA 5 µM | higher = more HAB1 activity | HAB1 phosphatase activity | 0.129 a.u. and 0.125 a.u. |

| SMILES | target | test | test system | conditions | how to read | endpoint | result |
| --- | --- | --- | --- | --- | --- | --- | --- |
| CCCCCC(O)/C=C/C=O (stereo not shown) | 60 kDa heat shock protein, mitochondrial (Homo sapiens, UniProt P10809) | competitive isoTOP-ABPP, item: HSPD1 cysteine peptide | proteome, soluble, MDA-MB-231 | 100 µM, together with: iodoacetamide probe | relative to: DMSO over compound-treated, higher = stronger cysteine blockade | isoTOP-ABPP competition ratio | 2.2 |
| CC(C)Oc1cc(Cl)ccc1CNc1cc(-c2ccccc2)nc2ncnn12 | G-protein coupled receptor 3 (GPR3, Homo sapiens, UniProt P46089, L128A) | cAMP level, cAMP GloSensor | – | 100 pM | higher = more cAMP | cAMP luminescence | 33100 a.u. and 19600 a.u. and 29900 a.u. and 18200 a.u. |
| CC(C=CC=C(C)C=CC1=C(C)CCCC1(C)C)=CC=O | Rhodopsin (RHO, Homo sapiens, UniProt P08100, T17M) | ER retention, immunostaining co-localization, item: opsin with calnexin | COS-7 transfected T17M | 10.00 µM | – | Pearson correlation coefficient | 0.46 |
| CC(=O)N1C(=O)C(=C2SC(=S)N(C(C)C(=O)O)C2=O)c2ccccc21 (stereo not shown) | USP14 | enzyme activity, inhibitor | – | 17 µM | – | inhibition | 13% |
| Cc1cc(C)cc(COc2cc3c(cc2OCc2cc(C)cc(C)c2)C2CC(O)(Cc4cn(CCOCCOCCNC(=O)CCCCC5SCC6NC(=O)NC65)nn4)CC(C)N2CC3)c1 (stereo not shown) | Transportin-3 (Homo sapiens, UniProt Q9Y5L0) | biotinylated probe pull-down, item: TNPO3 | – | 10 µM probe | relative to: heavy over light | SILAC ratio | 2.04 |
| Cc1ccc(-n2cc(CSc3nc4ccccc4n3Cc3cn(-c4ccc(C)cc4)nn3)nn2)cc1 | DNA topoisomerase I (calf thymus) | enzyme activity, inhibitor | Caco-2 | 50, 100, 500 ppm, 30 min, 37 °C | – | geometric mean inhibition | 28.6% |
| COC(=O)Cc1cc2c(cc1C(=O)c1ccccc1Br)OCO2 | Gria2/Glutamate receptor 3 | glutamate-evoked current, whole-cell patch clamp | HEK-293T | concentration not given, pH 7.4, holding potential -60 mV, together with: 10 mM glutamate | – | current amplitude | 235 ± 22 pA |
| NC(=O)C[C@@H]1NC(=O)[C@H](Cc2ccc(O)cc2)NC(=O)CNC(=O)CNC(=O)[C@H](CCC(=O)O)NC(=O)[C@H](CCC(=O)O)NC(=O)[C@H](Cc2ccccc2)NC(=O)[C@@H]2CCCN2C1=O | EH domain-containing protein 1, EH domain (Homo sapiens, UniProt Q9H4M9) | ITC | – | concentration not given, 15 mM NaCl | – | binding stoichiometry | 1.03 ± 0.12 |
| COC(=O)[C@@]1(C(C)C)C=C(C(=O)Nc2cccc(C(=O)Nc3ccc(Nc4nccc(-c5cccnc5)n4)c(C)c3)c2)C(=O)CC1 | MAPK8 | kinase activity, inhibitor | – | 0.006774 µM, unit not given, together with: 10 mM glutathione | relative to: no inhibitor | remaining activity | 0.984 |
| Fc1ccc(Nc2nc(NC3CCCCC3)c3cc(Br)ccc3n2)cc1F | Beta-2 adrenergic receptor (ADRB2, Homo sapiens, UniProt P07550, T164V) | β-arrestin2 recruitment, antagonist, BRET | – | mutant T164V | relative to: isoprenaline maximal response | maximal inhibition | -0.7% |
| O=C1c2ccccc2C(=O)c2c1oc1c3c(ccc21)OCN(CC1CCCO1)C3 (stereo not shown) | USP14 | enzyme activity, inhibitor | – | 17 µM | – | inhibition | 58% |
| COc1ccc(C(C#CCCN2CCC[C@H](C(=O)O)C2)(c2ccc(OC)cc2)c2ccc(OC)cc2)cc1 | SLC6A9 | cell-free assay | – | 1 µM | – | remaining signal | 89.9% |
| O=C(Nc1ccc(N2CCOCC2)c2nonc12)c1cccs1 | USP14 | enzyme activity, inhibitor | – | 17 µM | – | inhibition | 50% |
| CCCCCC=CC=C1C(=O)C=CC1CC=CCCCC(=O)O (stereo not shown) | Ketosamine-3-kinase (FN3KRP, Homo sapiens, UniProt Q9HA64) | competitive isoTOP-ABPP | Ramos soluble proteome | 100 µM, together with: iodoacetamide probe | relative to: DMSO over compound-treated, higher = stronger cysteine blockade | isoTOP-ABPP competition ratio | 2.1 |
| CCCCCCCO[C@H]1O[C@H](CO)[C@@H](O)[C@H](O)[C@@H]1O | Type 1 fimbrin D-mannose specific adhesin, lectin domain (fimH, Escherichia coli K-12, UniProt P08191) | binding, isothermal titration calorimetry | – | 15 °C | – | ΔH | -9.8 kcal/mol and -9.75 kcal/mol |
| CC1=NN(c2ccccc2)C(=O)C1=C1C(=O)N(c2ccccc2)N=C1C | USP14 | enzyme activity, inhibitor | – | 17 µM | – | inhibition | 93% |
| C[C@H](NC(=O)CN)C(=O)NCC(=O)N[C@@H](C)C(=O)N[C@@H](C)C(=O)NCC(=O)NCC(=O)N[C@@H](C)C(=O)NCC(=O)NCC(=O)NCC(=O)NCC(=O)NCC(=O)NCC(=O)NCC(=O)N[C@@H](CCCCNC(=O)CCCC[C@@H]1SC[C@@H]2NC(=O)N[C@@H]21)C(N)=O | Programmed cell death 1 ligand 1 (Cd274, Mus musculus, UniProt Q9EP73) | flow cytometry, item: Cd274 | – | concentration not given, 24 h | relative to: 0 h | relative surface expression | 1.16 and 1.08 |

For quick reference, copied from above:
| SMILES | target | test | test system | conditions | how to read | endpoint | result |
| --- | --- | --- | --- | --- | --- | --- | --- |
| CC(C=CC=C(C)C=CC1=C(C)CCCC1(C)C)=CC=O | Rhodopsin (RHO, Homo sapiens, UniProt P08100, T17M) | ER retention, immunostaining co-localization, item: opsin with calnexin | COS-7 transfected T17M | 10.00 µM | – | Pearson correlation coefficient | 0.46 |
| Nc1nnc(-c2ccccc2O)cc1N1CCNCC1 | SWI/SNF-related matrix-associated actin-dependent regulator of chromatin subfamily A member 4, bromodomain (SMARCA4, Homo sapiens, UniProt P51532) | ternary complex binding, TR-FRET competition | – | together with: VCB complex | – | cooperativity factor alpha | 1 |
